Measured values pooled from the literature.
Every numbered part comes from another study and shows a few of its results, in no order. Positions count from the first letter of the parent shown.

Sample 1
Target: TAR DNA-binding protein 43, full length, His tag (TARDBP, Homo sapiens, UniProt Q13148, residues 1-414)
Technique: RNA Bind-n-Seq
Form: RNA
Matrix: in vitro
Tested at: 20 nM
Setting: 6-mer, flanks averaged, single round
With: 150 mM KCl
Reference: input library
Reading: higher = stronger binding
Strand	6-mer enrichment (R)
UCCGAC	0.625
UGCCCU	0.658
UCAAUC	0.541
GGCAAA	1.24
AGCUUA	0.592
UAAUCC	0.569
UAAGGC	0.804
AAGCUC	0.576
CCUCUA	0.573
GAAAUA	0.681

Sample 2
Target: Interferon regulatory factor 7, full length, phosphomimetic (IRF7, Homo sapiens, UniProt Q92985, residues 1-503, S101K/S471D/S472D/S475D/S476D/S477D/S483D/S484D/S487D)
Technique: protein-binding microarray
Form: double-stranded DNA, one strand shown
Matrix: in vitro
Tested at: 250 nM
Setting: 60-bp whole probe
With: salmon DNA 0.4 mg/ml
Reference: random background probes
Reading: higher = stronger binding
Constant ends, left off below: GCCTAGCAC … GTCTTGATTCGCTTGACGCTGCTG
Target sequence (chain): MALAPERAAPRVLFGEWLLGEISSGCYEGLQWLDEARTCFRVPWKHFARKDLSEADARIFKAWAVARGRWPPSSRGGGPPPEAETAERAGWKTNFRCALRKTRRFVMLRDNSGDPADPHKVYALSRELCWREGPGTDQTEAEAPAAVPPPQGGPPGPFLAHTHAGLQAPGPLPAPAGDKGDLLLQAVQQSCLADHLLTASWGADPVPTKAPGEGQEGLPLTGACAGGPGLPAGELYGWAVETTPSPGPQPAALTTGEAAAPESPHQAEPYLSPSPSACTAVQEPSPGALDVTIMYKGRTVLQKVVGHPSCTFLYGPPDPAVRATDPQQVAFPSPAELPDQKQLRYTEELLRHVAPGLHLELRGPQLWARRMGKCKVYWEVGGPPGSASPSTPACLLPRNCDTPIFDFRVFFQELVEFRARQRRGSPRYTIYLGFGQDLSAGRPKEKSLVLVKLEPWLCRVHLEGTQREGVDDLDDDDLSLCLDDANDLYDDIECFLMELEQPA
Strand	log fluorescence [z-score]
CTAATATTCTGCTTTGCAATGTGCTAG	1.47
TTCGGTATCGACACTGGGTTAGTGCTA	-0.129
TTAGGACTGGACACTGCGTTAGTGCTA	-0.532
GACGGAATCGGGTTTCGGGACGTGCTA	2.89
GCTAGTATGTTCCTTATTTAAGTGCTA	0.403
AACGGTATCGGTTTCGGGACGTGCTAG	7.24
GACAATTTCAGTCTCGAGACGTGCTAG	0.842
TCACCATTAAATTTTAAACTGTGCTAG	0.0937
GACGGTATCGGTCTGGGGACGTGCTAG	0.455
TTAGATTGCAGTTTCGATTAGTGCTAG	7.74
GACGGGCTGCTTCTCCTGACGTGCTAG	-0.96
TCAGGTCTGGATGTGCCACTGTGCTAG	-0.509
TCCTCTCTCTATTCAGAGGAGTGCTAG	1.9
TTCGGTTTCGACTATCGGTTAGTGCTA	6.43
GACGGACTGTGGTATCGGGACGTGCTA	-0.426
TCACTTTGCTCATTTTTCACTGTGCTA	1.52
TTTGGTTTCGGGTATCGGTTAGTGCTA	8.96

Sample 3
Target: RING finger protein unkempt homolog, zinc fingers 1-6, GST-SBP tag (UNK, Homo sapiens, UniProt Q9C0B0, residues 30-357)
Chain of UniProt Q9C0B0 (30-357, looked up): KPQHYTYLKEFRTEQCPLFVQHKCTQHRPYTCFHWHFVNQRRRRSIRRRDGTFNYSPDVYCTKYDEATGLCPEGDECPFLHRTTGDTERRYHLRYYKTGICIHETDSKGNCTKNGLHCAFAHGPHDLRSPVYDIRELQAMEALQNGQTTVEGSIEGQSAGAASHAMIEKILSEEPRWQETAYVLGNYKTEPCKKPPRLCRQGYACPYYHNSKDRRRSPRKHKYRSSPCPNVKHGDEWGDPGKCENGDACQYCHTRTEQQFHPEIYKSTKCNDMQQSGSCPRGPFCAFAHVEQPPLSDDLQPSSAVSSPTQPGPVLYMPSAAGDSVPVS
Technique: RNA Bind-n-Seq
Form: RNA
Matrix: in vitro
Tested at: not given
Setting: RNA with constant flanks, human-mouse chimeric sites, ends assumed
Reference: input RNA pool
Reading: higher = stronger binding
Constant ends, left off below: GGGAGUUCUACAGUCCGACGAUC … CAACAGAGGAUUGAGCAUCA
Strand	bound/input enrichment [ratio]
UGUAGUUUCUUGAUUUAUCAUUUUUCUUGCUCGGGUUAGAUCGUCAGGAAAAGCCUAAAGAUUAGGUUGUAAGAAAAACAGAAGCCAUGUUUCGAAGACCUGUGUUACAGGUAUUUCGUC	0.351
ACUCUUGACUCUUUCCAUCCUCUUCCUUUCCCUCUUGAUAUUCAAGGCCAUGAAUCCCAAAAUAGCUGUCUUAGUGGCUAGCACCCAAACAGAGGUGGAAUAAAUCCAAACUGACAACUC	0.983
CUGAGGAUACCACUGAAGAGACCUUAAAAGGAGUCAUUGAGGGCUCUGUUCGUGCAAGAAUAGUCACUGAUCGGGAAAACUGGGUCCCCAAAGGGUUUGGUUUUGUAGACUUUAAUAGUG	0.857
GGUGGGGUGGUCAUUGCCGUUUGAGCUCUGCUGAUUCAUGAGUCGCCUUCAAAACUCUCGUGUAGGGUUGACAAUGUGGGGGGGUGGGAAAUCUAGCUUAUUCUUUUAUUUUCAAGUCCA	10.9
GGUGGGGUGGUCAUUGCCGUUUGAGCUGCUGAUUUUCUUAUGAAUCACAUUCAGAACUCGUGUAGGGUUGACAAUGUGGGGGGGUGGGGGAUCCAGCUUAUUCUUUUAUUUUCAAGUCCA	0.855
GGCUGCUGGUGACUGUCCUGGAGUGGCUGGAGUUCCCCCGGAACCUGGGCCAGACUAAUUUUAGAAAAUGCCAAGUAGGAAAUUUGCUGAGGGUGAAGUGGUCAGAGGCCGAUGGCCUGG	3.62
AAAUCGUGUGUGUCCAAUAUUGAAAGUGCUUUAUCUACACUCCAGUAUGUAAGCAGCAUAGUAGUUUCUUUAGAGAAUAGGUCAGCCAUUGUAAAGUAUAAUGCAAGCUUAGUCACUCCA	10.4
CUUUUUGAAUCAUUCAAGAGUUUUGAAGGUCUCUUUUAUUUUCUGGGAUCCAUUGUUAACUUUAGUCAGGACCCAGAUGUGCACUUUAAAUAUAUUCAGGCGGCUUGCAAGACUGGGCAA	0.882
AGAGAAAUGAGAAAGAAUCUUACACAAGAAGAGAUGCAAAGAAUGUCUACUAGAGUCCUUUUGGCGACUCUUUCCAUCCCUAUUACUCCUGAGCGUACUGAUAUUGCUCGACUUUUGGAU	0.0893
UCUGGUCACACUCGUGUAUAUGGUGUGUGCUUUGUGGACACUUCACUGGGAAAGUUUUUCAUCGGCCAGUUUUCGGAUGACCGCCACUGUUCCAGAUUUAGGACGCUAGUGGCUCACUAU	0.234
GGUGGGGGGUUGUCAUUCGUUUGAGCUGCUGAUUUUCAUGAGUCGCCCAUUCAGAACUCGUGUAGGGUUGACAAUGUGGGGGGGUGGGGGAUCCAGCUUAUUCUUUUAUUUUCAAGUCCA	0.832

Sample 4
Target: Histone acetyltransferase KAT6A, winged helix 1, GST fusion (KAT6A, Homo sapiens, UniProt Q92794, residues 1-85)
Technique: protein binding microarray
Form: double-stranded DNA, one strand shown
Matrix: in vitro
Tested at: not given
Setting: 8-mer, flanks averaged, mean of 2 arrays, mostly near background
Reference: not given
Reading: higher = stronger binding
Target sequence (chain): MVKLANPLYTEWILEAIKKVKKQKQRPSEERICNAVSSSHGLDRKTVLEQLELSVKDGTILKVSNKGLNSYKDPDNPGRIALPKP
Strand	E-score
GAGAGGAA	-0.199
AACAAGGT	-0.118
TACGTATA	-0.0356
AGCAGTGC	-0.026
ACTACGTA	0.00822
ACGATTAT	-0.0387
CGGAGGAG	0.0836
CGCCCGTA	0.407
CGGTAGTC	0.284
CCTATCCC	-0.0891
GATCATGC	-0.127
ACTATAGG	-0.0992
CGGAGCGC	0.413
AACCCTTA	-0.0866
ACCTTTCT	-0.148
ATGGTGCA	-0.177

Sample 5
Target: RNA binding protein fox-1 homolog 2, RRM domain, GST-SBP tag (RBFOX2, Homo sapiens, UniProt O43251-10, residues 100-194)
Technique: RNA Bind-n-Seq
Form: RNA
Matrix: in vitro
Tested at: 365 nM
Setting: natural RNA segment, single round, ends assumed
Reference: no-protein control
Reading: higher = stronger binding
Constant ends, left off below: GGGAGUUCUACAGUCCGACGAUC … UGGAAUUCUCGGGUGCCAA
Construct (chain): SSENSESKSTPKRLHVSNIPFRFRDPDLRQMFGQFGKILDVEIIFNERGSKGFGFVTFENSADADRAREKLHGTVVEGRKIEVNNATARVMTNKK
Strand	RBNS enrichment (R)
CUUGCCUGUUACUUUAGAGAUCUAGCCACUAGGCAGUCGCUUCUAAGAAAAUUAUUGAUGAAGUGGCCUUGUAAGUACAUGGUCUCUGAAAAAAAUUCAAGUUUUGUUCU	0.325
GUGCUAAUAUUAGCUGCAUUUCCUGCAGGGCAGGGAUGCGACCUUGCACAUGCUAGGCAAGCUCUCUACCCUGAGCUACGUACAUCCUAGCCCUUAGAACUACCACCCUG	0.339
UUCUCACCACAACAAAAGCAACUAAUUGGAAACUAGAUGUGUUCAAUAAUAGAUUUCCUCUUUUUUGGCAUGCUUUUUAGAUUUUUUUUCAUUUUGUAAAAUCUCAGUUA	2.28
UGUCUGAGAGGCGUGAAGGGCCUGGAGCCACUCUGCUAGAAGAGACCAAUAAAGGGCAGGUGUGGAACGGCCAGCCUGUGUGUGUGUUCUUUGACAGAGGGCGGAGGGAA	0.756
UUGUUAUCCCACGUUCAGGCCAGGAUUAGUACAGAGCUGGUUAAGGCUUUCAUUUCACUUCAGAUUCAGCGGUGGGAGAGUGAGCUAGUACUGUCCUAACCCUGGCUUUU	0.212
CCCUCUUAUUUUUAACUUGGAUACCUGCUAUUCUGCCAAAAGACAAUUUCUAGAGUAGUUUUGAAUGGGUUGAUUUCCCCCACUCCCACAAACUCUGAAGCCAGUGUCUA	0.564
UUUCUUGCCUCCUUUUUUGGCAGCCUUCAUCUUUUCCUAAAGCCCUUGAGCCUGUAGGGUUUUCAUAGUGGACAAAGGACUUAAAUGGUCUUUUAAAACUGGGAUAGUUU	0.828
ACUUUUUGGUGGCAUUUGUAAAAGCUGAUAUAAAAGGCUCUGAGAUGUUAUUUUCAGUUAUUCCAUAGGCAAGCCUUUUUACAGAGCAUAUGUCUCCAGUUGGCAGCUUG	0.671
GCGGUGUUGAACUGUUUGUGUAGAAAGCCAUCUUUCUGUCUCUUAAGCUCCUCUGGUUUGUCUGGUAGGUGUAAUUACGCCUGGCGAGCCCUGGGCCCGGGUUGCUAAGC	0.448
UGAUAGCAGCCAUGCCCCUGGGAGUCAACUUCAAGGAUCUGGGACAUUUUGGUGUGCCCAUUCCUUCUUUUCCUGAACUCACAGUCUUGGGGUGUUUCUGCACUUGGCUA	0.281
CCGUGCCCGCCUGCAGUGGUUGGAGACGGGAGUGGCCCUUCGGCUCCCGAGCUCCCUCUGGGGACGGCUGGCUCACUGUCUCCAGUUCUCAAUGGCCAACGAAGGUGCUU	0.282
AGGCAUGAUUUUUAUCAGUGAUUUAUAUUGGGAAUGAAAACCGUUCCUGCCUCCUCCCAAGGGAAGGAAGUGAGAGCAGUGGUCCUCUGGUUCAUUUAGCUGUUUGGCAG	0.486

Sample 6
Target: ABI1, truncated, D143A, DHFR fusion (Arabidopsis thaliana, UniProt P49597)
Technique: DHFR PCA, dose-response
Matrix: yeast
Setting: Hill fit, not affinity
With: (+)-ABA, dose series
Reading: lower = more sensitive
Parent: PYL1, truncated, DHFR fusion (Arabidopsis thaliana, UniProt Q8VZS8); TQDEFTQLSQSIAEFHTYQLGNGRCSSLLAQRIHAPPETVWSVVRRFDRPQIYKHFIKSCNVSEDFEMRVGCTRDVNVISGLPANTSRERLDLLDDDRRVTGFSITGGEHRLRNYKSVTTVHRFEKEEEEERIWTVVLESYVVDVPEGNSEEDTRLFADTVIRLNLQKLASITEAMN
Variant	ABA EC50 [µM]
C60F	2340
Q2M	6.5
G108D	1220
T135G	1130
T119N	2390
M68L	1.17
E131H	2.82
D95G	1360
R132G	0.993
V78L	10.8
T6K	6.24
R132D	0.361

Some of these lines once more (sample 3):
Strand	bound/input enrichment [ratio]
GGUGGGGUGGUCAUUGCCGUUUGAGCUCUGCUGAUUCAUGAGUCGCCUUCAAAACUCUCGUGUAGGGUUGACAAUGUGGGGGGGUGGGAAAUCUAGCUUAUUCUUUUAUUUUCAAGUCCA	10.9
AAAUCGUGUGUGUCCAAUAUUGAAAGUGCUUUAUCUACACUCCAGUAUGUAAGCAGCAUAGUAGUUUCUUUAGAGAAUAGGUCAGCCAUUGUAAAGUAUAAUGCAAGCUUAGUCACUCCA	10.4
GGUGGGGUGGUCAUUGCCGUUUGAGCUGCUGAUUUUCUUAUGAAUCACAUUCAGAACUCGUGUAGGGUUGACAAUGUGGGGGGGUGGGGGAUCCAGCUUAUUCUUUUAUUUUCAAGUCCA	0.855
UGUAGUUUCUUGAUUUAUCAUUUUUCUUGCUCGGGUUAGAUCGUCAGGAAAAGCCUAAAGAUUAGGUUGUAAGAAAAACAGAAGCCAUGUUUCGAAGACCUGUGUUACAGGUAUUUCGUC	0.351
